Assay results pooled from the literature.
Protocols differ between the studies behind these lines. “And” joins repeats or separate records; there may be more than shown. ± gives the spread as reported. In brackets after ≈: the same amount, converted by molar mass.
UniProt P10635, sequence (whole entry, looked up): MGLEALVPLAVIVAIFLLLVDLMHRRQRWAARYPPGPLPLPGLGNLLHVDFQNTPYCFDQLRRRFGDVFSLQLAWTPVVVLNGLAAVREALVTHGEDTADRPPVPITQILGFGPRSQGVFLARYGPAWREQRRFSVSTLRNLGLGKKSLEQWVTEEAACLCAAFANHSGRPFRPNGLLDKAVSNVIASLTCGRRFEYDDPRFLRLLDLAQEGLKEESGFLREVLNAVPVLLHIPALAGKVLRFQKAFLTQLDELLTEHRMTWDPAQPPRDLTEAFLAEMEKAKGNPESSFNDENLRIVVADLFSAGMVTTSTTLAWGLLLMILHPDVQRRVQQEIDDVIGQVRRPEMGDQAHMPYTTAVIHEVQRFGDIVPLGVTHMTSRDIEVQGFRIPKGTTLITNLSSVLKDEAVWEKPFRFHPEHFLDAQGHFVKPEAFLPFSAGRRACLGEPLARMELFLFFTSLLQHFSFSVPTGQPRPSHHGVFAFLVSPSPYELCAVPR

Compound | target or system | assay | test system | conditions | how to read | measurement | value
O=C(Nc1ccccc1)C12CC3CC(C1)CC(n1cnc([N+](=O)[O-])n1)(C3)C2 | Trypanosoma cruzi | reporter mRNA translation, inhibitor, measured: Renilla luciferase mRNA | cell-free extract | concentration not given, test 1 | reference: positive over negative control | translation activity | 97.2% and 106%
C=CC(=O)Nc1cccc(Cn2ncc3cnc(Nc4cnn(CCOC)c4)nc32)c1 | human ABL1(T315I)-nonphosphorylated | KINOMEscan |  | 100 nM | reference: control | binding | 16%
CCN(CC)CC(=O)Nc1cccc(-n2cc(-c3ccc4ccc(-c5cn(-c6cccc(NC(=O)CN(CC)CC)c6)nn5)cc4c3)nn2)c1 | RCC4 | PCR angiogenesis array, measured: ANPEP |  | 5 x IC50, 6 h, normoxia | reference: untreated | fold regulation | -1.71
CC1=C[C@@H](O/C=C2/C(=O)O[C@H]3c4ccccc4C[C@@H]23)OC1=O | Phelipanche ramosa | seed germination, stimulant | seeds |  |  | EC50 | 4.8 nM
Cc1ncsc1-c1ccc(C(C)NC(=O)C2CC(O)CN2C(=O)C(NC(=O)CCCCCCCCCCN2CCCC(Nc3ncc(Cl)c(Nc4ccccc4S(=O)(=O)C(C)C)n3)C2)C(C)(C)C)cc1 (stereo not drawn) | 22Rv1 | RNA-seq, measured: ZKSCAN2 mRNA |  | concentration not given | reference: DMSO | log2 fold change | -1.5
CNS(=O)(=O)Nc1nccc(Cc2c(C)c3ccc(Oc4ncccc4F)cc3oc2=O)c1F | HEC-251 | cell viability |  | 7 days |  | IC50 | > 1000 nM
CC(C)c1ccc(N(C)c2ccc3c(c2)OCC[C@H]3CNc2cnccc2C(=O)O)cc1 | SNU-398 | cell growth or viability, ATP luminescence |  | 7 days |  | IC50 | 18 nM
CCCC[C@@H]1NC(=O)[C@@H](CC(C)C)NC(=O)[C@H](CCCCNC(=O)CN2CCN(CC(=O)O)CCN(CC(=O)O)CC2)NC(=O)NNC(=O)[C@H](Cc2c[nH]cn2)NC(=O)[C@@H](Cc2c[nH]c3ccccc23)NC1=O [copper-64 labelled] |  |  | Balb/c mice, muscle | intravenous, dose not given |  | tissue uptake | 0.22 ± 0.14 %ID/g
C=C(NC(=O)c1csc(-c2nc3c(cc2O)-c2nc(cs2)C(=O)NC(C(C)O)C(=O)NC(=C(C)OC)c2nc(cs2)C(=O)NC2c4nc(cs4)C(=O)NC(COC(=O)c4c5c6c(cccc6n4O)COC(=O)C(OC4CC(C)(O)C(N(C)C)C(C)O4)C2OC5)c2nc-3cs2)n1)C(N)=O (stereo not drawn) | Enterococcus faecalis |  | vancomycin-intermediate, 10 isolates | serum 25% |  | MIC50 | 0.0312 µg/mL (≈ 0.0217 µM)
CN1CCCNC(=O)c2cccc(c2)C(=O)NCCCN(C)CCCNc2cccc3c2C(=O)c2cccc(c2C3=O)NCCC1 | SAS | RNA-Seq, measured: DCAF10 mRNA |  | 1 µM, 6 h | reference: untreated cells | log2 fold change | 0.718
O=C(NCc1cn(-c2ccccc2)nc1-c1ccccc1)c1cc([N+](=O)[O-])cc([N+](=O)[O-])c1 | Trypanosoma cruzi | reporter mRNA translation, inhibitor, measured: Renilla luciferase mRNA | cell-free extract | concentration not given, test 3 | reference: positive over negative control | translation activity | 110%
CCOc1cncc(-c2ccc(NC(=O)C3(c4ccnc(NS(=O)(=O)C5CC5)n4)CCOCC3)nc2)n1 | SNU-398 | cell proliferation, CellTiter-Glo |  | 72 h |  | IC50 | 289 nM
CNC(=O)C1CCCN(C(=O)C2CC3CCC2N3C(=O)[C@@H]2C[C@@H](O)CN2C(=O)NCc2cccc(Cl)c2F)C1 (mixture of isomers) | Cytochrome P450 2D6 (CYP2D6, Homo sapiens, UniProt P10635) | enzyme activity, inhibitor, time-dependent inhibition |  | 1.85 µM, preincubated without NADPH |  | dextrorphan formation | 145 ng/mL
Nc1ncc(-c2cc(-c3cnn(CC(F)(F)F)c3)ncc2F)nc1C(=O)NC1CNCC(F)C1 (stereo not drawn) | JNK2 | KINOMEscan competition binding |  | 1 µM | reference: DMSO control | remaining binding | 100%
COC1CN([C@H]2CC[C@H]([C@@]3(C)Oc4c(Cl)cc(C(=O)NCc5c(SC)cc(C)[nH]c5=O)c(C)c4O3)CC2)C1 |  | RNA-seq, measured: AKT3 mouse homolog | mouse, HT-1376 xenograft, whole blood | dose not given | reference: vehicle | log2 fold change | 1.16

Repeated from above:
Compound | target or system | assay | test system | conditions | how to read | measurement | value
CC(C)c1ccc(N(C)c2ccc3c(c2)OCC[C@H]3CNc2cnccc2C(=O)O)cc1 | SNU-398 | cell growth or viability, ATP luminescence |  | 7 days |  | IC50 | 18 nM
CCCC[C@@H]1NC(=O)[C@@H](CC(C)C)NC(=O)[C@H](CCCCNC(=O)CN2CCN(CC(=O)O)CCN(CC(=O)O)CC2)NC(=O)NNC(=O)[C@H](Cc2c[nH]cn2)NC(=O)[C@@H](Cc2c[nH]c3ccccc23)NC1=O [copper-64 labelled] |  |  | Balb/c mice, muscle | intravenous, dose not given |  | tissue uptake | 0.22 ± 0.14 %ID/g
